Results gathered from unrelated publications.
Each numbered part is a random draw from the data of one study; scales do not carry over between parts.
Chain of UniProt Q96BR1 (whole entry, looked up): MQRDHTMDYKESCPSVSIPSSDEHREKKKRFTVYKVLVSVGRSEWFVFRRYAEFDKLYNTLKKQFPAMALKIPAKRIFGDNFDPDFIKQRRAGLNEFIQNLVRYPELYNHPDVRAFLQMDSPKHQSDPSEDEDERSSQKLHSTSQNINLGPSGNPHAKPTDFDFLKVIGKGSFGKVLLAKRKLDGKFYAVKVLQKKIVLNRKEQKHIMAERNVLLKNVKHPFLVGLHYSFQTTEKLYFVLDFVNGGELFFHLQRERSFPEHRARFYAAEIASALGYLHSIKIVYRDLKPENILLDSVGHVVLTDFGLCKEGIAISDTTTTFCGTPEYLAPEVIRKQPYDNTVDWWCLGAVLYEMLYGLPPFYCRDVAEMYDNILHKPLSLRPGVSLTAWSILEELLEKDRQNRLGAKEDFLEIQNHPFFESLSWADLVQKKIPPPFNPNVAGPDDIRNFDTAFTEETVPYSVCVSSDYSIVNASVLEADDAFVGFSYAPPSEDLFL
Chain of UniProt Q13546 (whole entry, looked up): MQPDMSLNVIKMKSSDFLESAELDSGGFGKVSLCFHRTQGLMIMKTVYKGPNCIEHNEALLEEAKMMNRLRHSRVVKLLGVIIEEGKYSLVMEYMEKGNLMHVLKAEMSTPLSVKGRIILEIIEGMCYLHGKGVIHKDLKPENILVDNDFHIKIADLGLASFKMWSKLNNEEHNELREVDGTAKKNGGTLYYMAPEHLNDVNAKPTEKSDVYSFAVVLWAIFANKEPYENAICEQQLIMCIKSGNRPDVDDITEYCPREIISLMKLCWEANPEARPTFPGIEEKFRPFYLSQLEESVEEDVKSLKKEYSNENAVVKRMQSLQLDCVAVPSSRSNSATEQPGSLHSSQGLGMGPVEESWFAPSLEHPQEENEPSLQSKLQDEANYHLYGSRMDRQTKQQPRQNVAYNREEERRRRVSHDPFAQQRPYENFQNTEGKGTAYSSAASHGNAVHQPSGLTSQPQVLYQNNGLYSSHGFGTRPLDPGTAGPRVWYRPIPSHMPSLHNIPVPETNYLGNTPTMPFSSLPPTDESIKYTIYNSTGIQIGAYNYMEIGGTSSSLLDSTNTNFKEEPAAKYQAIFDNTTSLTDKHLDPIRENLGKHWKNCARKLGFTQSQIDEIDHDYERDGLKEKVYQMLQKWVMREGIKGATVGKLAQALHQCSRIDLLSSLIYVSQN
Chain of UniProt P36507 (whole entry, looked up): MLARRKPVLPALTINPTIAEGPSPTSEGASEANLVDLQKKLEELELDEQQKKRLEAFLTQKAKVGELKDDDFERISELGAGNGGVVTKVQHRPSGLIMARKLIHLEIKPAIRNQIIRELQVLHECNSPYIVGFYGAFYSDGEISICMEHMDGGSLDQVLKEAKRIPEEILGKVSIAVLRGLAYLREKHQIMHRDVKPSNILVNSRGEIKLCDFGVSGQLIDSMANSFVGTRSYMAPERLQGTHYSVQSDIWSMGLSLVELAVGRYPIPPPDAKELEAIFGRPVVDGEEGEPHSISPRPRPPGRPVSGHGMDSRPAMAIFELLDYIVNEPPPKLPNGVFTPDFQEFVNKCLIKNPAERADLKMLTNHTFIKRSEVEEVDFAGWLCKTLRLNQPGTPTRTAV

Series 1
Target: DNA polymerase theta, ATPase domain (POLQ, Homo sapiens, UniProt O75417)
Chain of UniProt O75417 (whole entry, unmodified, looked up): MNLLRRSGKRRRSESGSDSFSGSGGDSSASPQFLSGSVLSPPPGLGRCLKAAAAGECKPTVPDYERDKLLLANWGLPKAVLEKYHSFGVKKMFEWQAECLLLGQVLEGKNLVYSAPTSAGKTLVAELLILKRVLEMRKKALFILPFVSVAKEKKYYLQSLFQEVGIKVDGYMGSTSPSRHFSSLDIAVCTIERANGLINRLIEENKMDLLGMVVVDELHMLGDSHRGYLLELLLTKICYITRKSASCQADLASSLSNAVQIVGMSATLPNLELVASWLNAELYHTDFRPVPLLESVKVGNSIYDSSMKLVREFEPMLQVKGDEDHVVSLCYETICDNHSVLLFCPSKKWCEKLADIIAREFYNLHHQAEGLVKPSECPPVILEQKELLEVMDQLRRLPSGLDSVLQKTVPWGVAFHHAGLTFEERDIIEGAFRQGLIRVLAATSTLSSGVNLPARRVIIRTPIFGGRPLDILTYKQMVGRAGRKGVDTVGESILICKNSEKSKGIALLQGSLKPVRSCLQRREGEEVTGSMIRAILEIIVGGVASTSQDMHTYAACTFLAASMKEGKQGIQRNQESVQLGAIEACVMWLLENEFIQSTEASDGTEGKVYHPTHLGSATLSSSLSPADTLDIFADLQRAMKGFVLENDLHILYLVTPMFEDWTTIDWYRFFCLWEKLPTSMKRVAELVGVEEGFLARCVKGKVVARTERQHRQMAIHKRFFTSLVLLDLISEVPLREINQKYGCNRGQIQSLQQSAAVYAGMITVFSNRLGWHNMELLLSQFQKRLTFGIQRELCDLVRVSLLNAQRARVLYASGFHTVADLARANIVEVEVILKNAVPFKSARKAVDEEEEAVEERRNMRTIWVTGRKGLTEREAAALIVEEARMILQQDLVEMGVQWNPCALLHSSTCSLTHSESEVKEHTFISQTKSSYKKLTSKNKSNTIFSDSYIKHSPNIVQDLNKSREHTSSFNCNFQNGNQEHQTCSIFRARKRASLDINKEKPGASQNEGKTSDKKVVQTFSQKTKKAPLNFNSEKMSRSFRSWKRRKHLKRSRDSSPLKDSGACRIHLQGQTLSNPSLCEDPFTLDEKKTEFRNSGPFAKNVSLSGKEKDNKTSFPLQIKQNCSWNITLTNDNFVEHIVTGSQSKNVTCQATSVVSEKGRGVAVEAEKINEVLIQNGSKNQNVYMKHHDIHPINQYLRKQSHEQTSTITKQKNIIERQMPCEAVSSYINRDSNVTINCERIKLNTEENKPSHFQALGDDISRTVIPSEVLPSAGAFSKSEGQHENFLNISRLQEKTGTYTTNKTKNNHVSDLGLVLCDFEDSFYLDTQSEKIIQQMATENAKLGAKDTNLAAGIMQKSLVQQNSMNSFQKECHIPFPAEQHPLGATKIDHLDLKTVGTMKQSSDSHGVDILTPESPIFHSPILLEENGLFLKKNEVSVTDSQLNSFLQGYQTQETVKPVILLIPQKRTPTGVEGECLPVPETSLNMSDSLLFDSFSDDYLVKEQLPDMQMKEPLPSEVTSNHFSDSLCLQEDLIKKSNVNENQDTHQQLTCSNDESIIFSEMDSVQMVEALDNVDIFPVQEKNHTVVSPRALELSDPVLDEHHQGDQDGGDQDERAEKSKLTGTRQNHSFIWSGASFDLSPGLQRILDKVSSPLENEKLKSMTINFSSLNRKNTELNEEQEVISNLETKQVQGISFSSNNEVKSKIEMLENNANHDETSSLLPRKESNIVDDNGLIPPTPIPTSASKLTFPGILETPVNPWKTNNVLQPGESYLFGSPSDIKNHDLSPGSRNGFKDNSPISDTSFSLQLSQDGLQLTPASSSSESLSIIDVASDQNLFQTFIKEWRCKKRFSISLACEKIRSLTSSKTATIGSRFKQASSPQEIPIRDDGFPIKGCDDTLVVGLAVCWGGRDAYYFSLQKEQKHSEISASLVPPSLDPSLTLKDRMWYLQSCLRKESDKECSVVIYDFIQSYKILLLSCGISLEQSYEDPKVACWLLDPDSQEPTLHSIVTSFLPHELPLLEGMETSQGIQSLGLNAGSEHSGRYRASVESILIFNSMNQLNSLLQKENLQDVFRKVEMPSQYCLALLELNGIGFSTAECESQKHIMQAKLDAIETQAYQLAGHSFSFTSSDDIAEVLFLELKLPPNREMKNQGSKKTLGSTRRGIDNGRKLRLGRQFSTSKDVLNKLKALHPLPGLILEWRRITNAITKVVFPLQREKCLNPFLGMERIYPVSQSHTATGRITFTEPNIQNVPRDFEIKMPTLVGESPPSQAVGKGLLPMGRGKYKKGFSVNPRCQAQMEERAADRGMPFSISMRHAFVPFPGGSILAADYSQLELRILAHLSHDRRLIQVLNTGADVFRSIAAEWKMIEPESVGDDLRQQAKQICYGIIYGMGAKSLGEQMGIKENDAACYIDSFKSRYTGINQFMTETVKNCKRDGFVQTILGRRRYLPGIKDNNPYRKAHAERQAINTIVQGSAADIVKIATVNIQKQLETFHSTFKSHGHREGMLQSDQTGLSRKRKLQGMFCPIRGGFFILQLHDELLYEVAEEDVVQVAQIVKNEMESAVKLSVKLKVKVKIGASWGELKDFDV
Read-out: enzyme activity
Action: inhibitor
Concentration: 77 µM
Reference: untreated
Endpoint: remaining activity
Cc1c(N(C)CS(=O)(=O)O)c(=O)n(-c2ccccc2)n1C: 93.4%
COc1ccc(-c2coc3cc(O)ccc3c2=O)cc1: 90.4%
FC(F)(F)c1ccccc1-n1ccnc1: 95.1%
CC(C(=O)O)c1ccc2c(c1)CC(=O)c1ccccc1S2 (stereo not shown): 91.3%
COc1ccccc1CN[C@@H]1CCCN[C@@H]1c1ccccc1: 108%
COc1cc(Nc2ncc3c(n2)-c2ccc(Cl)cc2C(c2c(F)cccc2OC)=NC3)ccc1C(=O)O: 97.3%

Series 2
Species: human
Medium: microsomes or S9
Concentration: 2 µM
Time: 0.5 h
Endpoint: remaining compound
COCCCNc1nnc(Cc2ccc(Cl)cc2)c(O)n1: > 99.9%
CC(=O)c1cc(-c2nccn2CCn2[nH]c(=O)ccc2=O)cs1: > 99.9%
Oc1ccc2c(c1)oc1c(C3=Cc4ccccc4OC3)c3c[nH]nc3nc12: 5.67%
COc1ccc(C(=O)N2CCC(c3ccc(OC)cc3)(c3ccc(OC)cc3)CC2)cc1: 16.7%
CCCC1(C)NC(=O)N(CC(=O)N(CC(C)C)CC(C)C)C1=O (stereo not shown): 1.69%
Cc1onc2c1COC2c1c(Cl)cccc1Cl (stereo not shown): 74.2%
O=c1ccc(-n2ccnc2)nn1CC(O)COc1ccc(Oc2ccccc2)cc1 (stereo not shown): 53.3%
CCC1CN(C(=O)c2cc(S(=O)(=O)N3CCOCC3)cn2C)c2cc(Cl)ccc2O1 (stereo not shown): 6.86%
CCc1ccc2ncc3c(-c4ccc(F)cc4)n[nH]c3c2c1: 1.98%
O=C(NCCc1nccs1)c1cc(-c2ccc(Br)s2)n[nH]1: 82.4%
Cc1cc2nc(NC(=O)N3CCN(c4cc(C(C)(C)C)cc(C(C)(C)C)c4)CC3)sc2cc1C: 35.8%
CC(C)CCNC(=O)N1Cc2c(sc3c2CCCC3)-n2cccc2C1c1ccccc1 (stereo not shown): < 1%

Series 3
Target: NUAK family SNF1-like kinase 2 (NUAK2, Homo sapiens, UniProt Q9H093)
Chain of UniProt Q9H093 (whole entry, looked up): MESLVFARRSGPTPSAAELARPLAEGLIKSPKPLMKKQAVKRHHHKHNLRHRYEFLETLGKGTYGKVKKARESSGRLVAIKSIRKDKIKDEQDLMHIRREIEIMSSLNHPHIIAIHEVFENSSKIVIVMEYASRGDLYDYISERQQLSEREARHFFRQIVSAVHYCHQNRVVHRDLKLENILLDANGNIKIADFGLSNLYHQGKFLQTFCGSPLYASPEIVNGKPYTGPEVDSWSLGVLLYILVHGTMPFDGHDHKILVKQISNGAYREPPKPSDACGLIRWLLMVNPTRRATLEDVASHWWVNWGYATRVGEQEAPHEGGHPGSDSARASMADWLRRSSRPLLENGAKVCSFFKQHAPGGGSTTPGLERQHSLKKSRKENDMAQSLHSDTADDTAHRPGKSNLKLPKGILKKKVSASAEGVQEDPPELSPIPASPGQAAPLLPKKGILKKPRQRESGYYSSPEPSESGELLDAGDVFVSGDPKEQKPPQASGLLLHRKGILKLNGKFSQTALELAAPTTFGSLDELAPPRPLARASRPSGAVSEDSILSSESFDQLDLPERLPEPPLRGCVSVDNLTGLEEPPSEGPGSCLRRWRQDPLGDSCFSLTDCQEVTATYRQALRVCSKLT
Read-out: enzyme activity
Action: inhibitor
Concentration: 0.5 µM
Reference: control
Endpoint: remaining activity
COc1ccc(COc2ccc(Cc3cnc(N)nc3N)cc2OC)cc1: 98.1%
CN(C)S(=O)(=O)c1ccc2c(c1)/C(=C/c1cc3c([nH]1)CCCC3)C(=O)N2: 95.1%
CCCNC(=O)Nc1ccc(Oc2ncnc3cc(OC)c(OC)cc23)cc1Cl: 123%
O=C1Cc2c([nH]c3ccc(Br)cc23)-c2ccccc2N1: 71.1%
Oc1cccc(-c2nc(N3CCOCC3)c3oc4ncccc4c3n2)c1: 75.3%
Cc1cc(Nc2cc(N3CCN(C)CC3)nc(Sc3ccc(NC(=O)C4CC4)cc3)n2)[nH]n1: 77.5%
O=C(c1cc2cc(O)ccc2[nH]1)c1cc2cc(O)ccc2[nH]1: 95.7%
O=C1Nc2ccccc2/C1=C\c1c(Cl)[nH]c2ccccc12: 106%
COc1cccc(-c2cc(=O)c3ccccc3o2)c1N: 82.9%
O=Nc1c(-c2c(O)[nH]c3cc(Br)ccc23)[nH]c2ccccc12: 73.4%
Cc1ccc(S(=O)(=O)/C=C/C#N)cc1: 88.4%

Series 4
SMILES: CCS(=O)(=O)c1cc2cc(C[C@](O)(CC(C)(C)c3ccc(F)cc3C(N)=O)C(F)(F)F)[nH]c2cn1
Read-out: cell-free assay
Technique: competition with immobilised ligand
Concentration: 1 µM
Endpoint: remaining binding
Phosphatidylinositol 4-phosphate 3-kinase C2 domain-containing subunit beta (PIK3C2B, Homo sapiens, UniProt O00750): 89%
Serine/threonine-protein kinase B-raf (BRAF, Homo sapiens, UniProt P15056): 100%
Receptor-interacting serine/threonine-protein kinase 1 (RIPK1, Homo sapiens, UniProt Q13546): 100%
Dual specificity mitogen-activated protein kinase kinase 2 (MAP2K2, Homo sapiens, UniProt P36507): 95%
Rho-associated protein kinase 2 (ROCK2, Homo sapiens, UniProt O75116): 100%
Serine/threonine-protein kinase N1 (PKN1, Homo sapiens, UniProt Q16512): 100%
Serine/threonine-protein kinase Sgk3 (SGK3, Homo sapiens, UniProt Q96BR1): 89%
5'-AMP-activated protein kinase catalytic subunit alpha-2 (PRKAA2, Homo sapiens, UniProt P54646): 97%
eIF-2-alpha kinase GCN2, C-terminal kinase domain (EIF2AK4, Homo sapiens, UniProt Q9P2K8, S808G): 89%
Ephrin type-A receptor 7 (EPHA7, Homo sapiens, UniProt Q15375): 86%
Cyclin-dependent kinase 11B (CDK11B, Homo sapiens, UniProt P21127): 100%
Myosin light chain kinase, smooth muscle (MYLK, Homo sapiens, UniProt Q15746): 96%
Mast/stem cell growth factor receptor Kit (KIT, Homo sapiens, UniProt P10721, D816V): 100%
Macrophage-stimulating protein receptor (MST1R, Homo sapiens, UniProt Q04912): 100%
